Assay results gathered from unrelated publications.
Protocols differ between the studies behind these lines. ± gives the spread as reported. In brackets after ≈: the same amount, converted by molar mass.

`COc1cc2ncnc(Oc3ccc4c(C(N)=O)c(C)oc4c3)c2cc1OC` — result for “decrease in exposure”: roughly 25% (item: AUC0-inf; human, moderate renal impairment; oral; relative to: normal renal function).
With `Cc1cn(CC(=O)N[C@@H](Cc2ccccc2)C(=O)N[C@@H](Cc2ccccc2)C(=O)O)c(=O)[nH]c1=O` the nanofiber width was 9 nm (TEM; hydrogel in water; 2.0 wt%, pH 5.0 or 7.4, added: alkaline phosphatase at pH 7.4).
`CC(C)C[C@@H](NC(=O)[C@H](NC(=O)[C@H]1CCCN1)[C@H](C)O)C(=O)N[C@H](Cc1c[nH]cn1)C(=O)N[C@@H](C(=O)N[C@H](Cc1c[nH]cn1)C(=O)N[C@H](CC(N)=O)C(=O)N[C@H](CCCNC(=N)N)C(=O)N[C@H](CCCNC(=N)N)C(=O)N[C@H](CCCNC(=N)N)C(=O)N[C@H](CCCNC(=N)N)C(=O)N[C@H](CCCNC(=N)N)C(N)=O)[C@H](C)O` has an MRT(0-inf) of 97 ± 47 h (Beagle dog, CSF; oral, 50 mg/kg).
With `N=C(N)NCCC[C@H](NC(=O)[C@@H]1CCCN1C(=O)[C@H](Cc1ccccc1)NC(=O)[C@@H]1CCCN1C(=O)[C@H](Cc1c[nH]cn1)NC(=O)[C@@H](N)Cc1ccccc1)C(=O)O` the MRT(0-inf) was 0.969 ± 0.295 h (Sprague-Dawley rats, male, plasma; oral, 50 mg/kg).
With `O=C(NCC1OC2CCC=CCCC2O1)c1ccc(COCCOCCOCC[18F])cc1` (centres unmarked) the radiochemical purity was 94% (PBS; 2 h, 37 °C).
`C[Si]1(C[C@H](CN)CC(=O)O)CCCC1` gave a performance time of 180 s (neuromuscular coordination; Wistar rat male; oral, 100 mg/kg, 2 h).
`CO[C@@H]1[C@H](OC(=O)N[C@H]2CC[C@H](N)CC2)CC[C@]2(CO2)[C@H]1[C@@]1(C)O[C@@H]1CC=C(C)C` has a half-life ratio of 4 fold (Sprague-Dawley rat, male, plasma; iv bolus, dose not given; relative to: compound over TNP-470).
`C[Si](C)(C[C@@H](CN)CC(=O)O)C1CC1` has a performance time of 180 s (neuromuscular coordination; Wistar rat male; oral, 30 mg/kg, 1 h).
`Cn1c(=O)oc2ccc(-c3ccc(CC(C#N)NC(=O)C4CNCCCO4)c(F)c3)cc21` (centres unmarked): “CPK increased incidence” 0% (human; oral, 10 mg once daily, TEAE, multiple ascending dose).
`CCCC(CCC)NC(=O)c1ccc(O)c(O)c1` has an AUC(0-last) ratio of 3.47 (female Sprague-Dawley rats, plasma; oral, 50 mg/kg of parent drug; relative to: 50 over 20 mg/kg dose).
`[2H]C([2H])([2H])Oc1cc2c(cc1OC([2H])([2H])[2H])[C@H]1CC(=O)[C@H](CC(C)C)CN1CC2`: “radioactive dose recovered” 80% (healthy men, urine and feces; oral, 25 mg, time not given).
Under “radiative decay rate constant”, `COc1ccc2cc(-c3ccc(-c4ccc(C)cn4)nc3)oc2c1` is recorded as 0.1 ns⁻¹ (TCSPC; water, HEPES 100 mM; pH 7.4, zinc-free ligand).
For `CC(=O)N[C@@H](CCC(N)=O)C(=O)N[C@@H](CCC(N)=O)C(=O)N[C@@H](CCCCN)C(=O)N[C@@H](Cc1ccccc1)C(=O)N[C@@H](CCC(N)=O)C(=O)N[C@@H](Cc1ccccc1)C(=O)N[C@@H](CCC(N)=O)C(=O)N[C@@H](Cc1ccccc1)C(=O)N[C@@H](CCC(=O)O)C(=O)N[C@@H](CCC(N)=O)C(=O)N[C@@H](CCC(N)=O)C(N)=O`, the nanofiber width was 9.18 ± 1.67 nm (negative-stain TEM; 1× PBS; 0.2 mM).
The tracer uptake of `COc1cc2c(cc1OC)CN(CCCCn1ccc3cc(OCC[18F])ccc31)C2` is reported as 1.89 %ID/g (male CD-1 mouse, blood; intravenous, 2 h).
The absorption maximum of `COc1cc(OC)cc(C2=C3C(C)=C(I)C(C)=[N+]3[B-](F)(F)n3c(/C=C/c4cccs4)c(I)c(C)c32)c1` is reported as 599 nm (dichloromethane).
For `N#Cc1cnc2cc(OCC3CCNCC3)c(F)cc2c1Nc1cc(F)c(OCc2cccc(Cl)n2)cc1Cl`, the Cmax was 210 ng/mL (male beagle dog, plasma; oral, 5 mg/kg).
Under “parent radioligand in plasma”, `CCc1cc(C)nc2c(CC(=O)N(CC)CC)c(-c3ccc(OCC[18F])cc3)nn12` is recorded as 89.2% (rat, plasma; first 2 min after injection).
`Cc1[nH]nc2c1N=C(c1ccccc1Cl)c1cnc(NCCOCCO)cc1N2`: “excretion in feces and urine” 3.45% (human, feces and urine; oral, 10 mg; relative to: dose).
`COc1cc(NC(C)=O)c2c(c1O)-c1c(OC)c(OC)cc3c1C(C2)N(C)CC3` (centres unmarked) gave a remaining compound of 90.3 ± 3.2% (rat liver homogenate; 100 µg/mL, 40 d, -20 °C, long-term storage).
With `CCC(=O)N[C@@H](C)C(=O)OCC(=O)N[C@@H](C)C(=O)O` the depolymerization half-life was 83.2 h (water; pH 6, 50 °C).
`C=C(c1ncc(C(=O)O)cn1)c1cc2c(cc1C)C(C)(C)CCC2(C)C` has an LDL level of 19 ± 11.1 mg/dL (Sprague-Dawley rat, male, plasma; oral, 100 mg/kg, 2 h, sesame oil vehicle).
Under “mean absorbed dose”, `NC12CNCCNCC(NCc3ccc(CNC(=O)CCCC(=O)NCc4ccc(-c5nncnn5)cc4)cc3)(CNCCNC1)CNCCNC2.[64Cu+2]` is recorded as 0.0146 rad/mCi (OLINDA dosimetry; spleen; 24 h pretargeting interval, added: huA33-TCO pretargeting).
`Cc1ccccc1/N=N/c1ccc(/N=N/c2c(O)ccc3ccccc23)c(C)c1` has a measured concentration of 16.2 µg/L (rat whole blood QC samples; 16.0 µg/L, 8 h, room temperature, short-term stability).
`Cc1ccc(NCC(=O)Nc2ccc(F)c(Cl)c2)cc1S(=O)(=O)N(C)C` gave a kinetic solubility of 181 µM (≈ 72.4 µg/mL) (water).
For `COCC1CN(C2CCN(c3cc(OC)c(Nc4ncc(Br)c(Nc5ccc6c(c5P(C)(C)=O)OCCO6)n4)cc3C)CC2)C1`, “treatment-related Nausea, all grades” read 29.6% (human patients; oral, 10 to 240 mg once daily).
For `CC(C)CCN(c1nc(C#N)nc(NC2COC2)n1)C(C)c1ccc(F)cc1` (centres unmarked), “brain/plasma AUC ratio” read 0.52 (CD-1 mouse female; intraperitoneal, 10 mg/kg; relative to: brain over plasma).
Under “parent tracer fraction”, `C[C@H](CN(C)Cc1ccccc1)NC(=O)c1ccc(-c2noc(C(F)(F)[18F])n2)cc1` is recorded as 30 ± 2% (radio-HPLC; Sprague-Dawley rat, female, plasma; intravenous, 60 min).
The intrinsic clearance of `CC(C)(C)NCC(SS(=O)(=O)O)c1ccccc1` (centres unmarked) is reported as 2.5 µL/min/mg (mouse liver microsomes; without NADPH).
The intrinsic clearance of `C=CCNC(=O)NC1CC=C(c2cc3c(Nc4cc5ncsc5cc4F)ncnc3s2)CC1` (racemic) is reported as less than 12 mL/min/g protein (human liver microsomes; 1 µM).
For `CC(C)c1cnc(-c2cc(Cl)ccc2F)cc1Nc1ccncc1C(=O)NC(CO)CO`, “patients with related SAE” read 2.4% (item: intracranial tumour haemorrhage; human patients; oral, dose not given, grade 3).
`C#CCOc1ccc(/C=C2\SC(=O)N(CC(=O)NCc3ccccc3)C2=O)cc1`: “Kirkwood-Buff integral G2,3” -656 cm³/mol (inverse Kirkwood-Buff integrals; binary solvent mixture; 298.15 K, mole fraction x1 0.05).
`N=C(N)NCCC[C@@H]1NC(=O)[C@H](Cc2c[nH]c3ccccc23)NC(=O)[C@@H](CC2CCCCC2)NC(=O)[C@@H]2CCCN2C(=O)[C@@H](NC(=O)CCc2ccccc2)CCCNC1=O` — result for “elimination rate constant”: 0.000292 s⁻¹ (C57BL/6J mice, spinal cord; intraperitoneal, 1 mg/kg, two-compartment model).
For `CCCC[C@@H]1NC(=O)[C@@H](NC(=O)[C@H](CCC(=O)O)NC(=O)CNC(=O)CN2CCN(CC(=O)O)CCN(CC(=O)O)CCN(CC(=O)O)CC2)CCCCNC(=O)C[C@@H](C(N)=O)NC(=O)[C@H](C(C)C)NC(=O)[C@@H]2CCCN2C(=O)[C@H](CCCNC(=N)N)NC(=O)CNC(=O)[C@H](Cc2c[nH]c3ccccc23)NC(=O)[C@H](CCCNC(=N)N)NC(=O)[C@@H](Cc2ccccc2)NC(=O)[C@H](Cc2c[nH]cn2)NC(=O)[C@H](CCC(=O)O)NC1=O` [gallium-67 labelled], “tumour to kidney ratio” read 0.24 (C57 mice with B16/F1 melanoma; intravenous, 0.037 MBq/mouse, 24 h; relative to: tumour over kidney).
The tracer uptake of `C[C@H](Oc1cc(-c2cnn(C3CCN(CC[18F])CC3)c2)cnc1N)c1c(Cl)ccc(F)c1Cl` is reported as 4.9 ± 1.9 %ID/cc (PET imaging; nude mouse, liver; iv, 30 min post injection).
`CC/C=C\C/C=C\C/C=C\C/C=C\C/C=C\CCCCOC(CC)C(=O)O` (centres unmarked) has a tissue concentration of 0.5 µg equivalents/g tissue (radioactivity, 14C-labelled; Wistar rat, male, kidney medulla; oral, 100 mg/kg, 3 days).
The pKa1 of `O=C(O)[C@@H]1C[C@@H](O)CN1C(=O)[C@@H]1CCCN1` is reported as 2.02 (potentiometric titration; water; 25 °C, 0.15 mol/dm3 NaCl).
`O=[N+]([O-])[O-].[NH3+][Pt-2]1([NH3+])[O]C(c2ccccc2)=CC(c2ccccc2)=[O+]1` (centres unmarked): chemical stability “no effect” (1H NMR; PBS; up to 25 d, pH 7.4, 37 °C).
For `CCC/C(=C\C1=C(F)C(=O)c2ccccc2C1=O)C(=O)N(CC)CC`, the thermodynamic solubility was 85 µg/mL (≈ 248 µM) (FaSSIF; 24 h, 37 °C).
`Cc1ccc(OCC(=O)N(Cc2cccs2)c2ccn[nH]2)cc1` has an oral bioavailability of 0.79% (beagle dog, male, plasma; oral gavage, 30 mg/kg).
For `C=C(c1ccc(C(=O)O)c(F)c1)c1cc2c(cc1C)C(C)(C)C=CC2(C)C`, the LDL level was 35 ± 2.6 mg/dL (Sprague-Dawley rat, male, plasma; oral, 100 mg/kg, 1 h, sesame oil vehicle).
For `NC[C@@H](C(=O)Nc1ccc(-c2cn[nH]c2)cc1)c1ccccc1`, “total eye irritation score” read 0 (OECD 405 eye irritation; New Zealand White rabbit, eye; topical, 0.1%, 32 h (day 2); direction not given).
Under “surface partition coefficient”, `CC[C@H](C)[C@H](NC(=O)[C@H](C)NC(=O)[C@@H](N)C(C)C)C(=O)N[C@H](C(=O)N[C@H](C(=O)N[C@@H](CC(C)C)C(=O)N[C@H](C(=O)N[C@@H](CCCCN)C(=O)O)C(C)C)C(C)C)[C@@H](C)O` is recorded as 4.35e-06 m (air-water interface).
`CN1CCC[C@]1(C)/C=C/S(=O)(=O)NC(=O)Nc1c2c(cc3c1CCC3)CCC2` has a Tmax of 1 h (human, plasma; oral, 400 mg, single dose).
With `CC[C@H](C)[C@H](NC(=O)[C@H](N)Cc1ccc(O)cc1)C(=O)N[C@H]1CSSC[C@@H](C(=O)N(C)[C@H](C(N)=O)[C@@H](C)CC)NC(=O)[C@H](CCCNC(=N)N)NC(=O)[C@H](Cc2c[nH]cn2)NC(=O)[C@H](C)NC(=O)CN(C)C(=O)[C@H](Cc2c[nH]c3ccccc23)NC(=O)[C@H](CC(=O)O)NC(=O)[C@H](CCC(N)=O)NC(=O)[C@H](Cc2cn(C)c3ccccc23)NC(=O)[C@H](C(C)C)NC1=O` the recovery was 99 ± 0.3% (UPLC-ESI-MS; cynomolgus monkey plasma; 3.58 µg/mL, 24 h, 4 °C, autosampler after SPE).
The stability duration of `CNC(=O)N[C@]1(C)CCC[C@@]2(C)C3CC[C@@]4(C)C[C@]3(CCC21)CC4=O` (single isomer, unassigned) is reported as 101 days (rat, plasma; -80 °C).
Under “Cmax increase over dose-proportional”, `CC(C)[C@H](NC(=O)CNC(=O)[C@H](CCC(N)=O)NC(=O)[C@H](C)N)C(=O)O` is recorded as 126% (human; up to 30 mg/kg three times daily, 3 days).
The half-life of `Cc1noc(C)c1Cn1cc(N2C(=O)CN(Cc3cccc(OS(=O)(=O)O)c3)C2=O)cn1` is reported as 2.5 h (rat Sprague-Dawley male, plasma; oral, 30 mg/kg of parent drug).

Some of these lines once more:
The pKa1 of `O=C(O)[C@@H]1C[C@@H](O)CN1C(=O)[C@@H]1CCCN1` is reported as 2.02 (potentiometric titration; water; 25 °C, 0.15 mol/dm3 NaCl).
`O=[N+]([O-])[O-].[NH3+][Pt-2]1([NH3+])[O]C(c2ccccc2)=CC(c2ccccc2)=[O+]1` (centres unmarked): chemical stability “no effect” (1H NMR; PBS; up to 25 d, pH 7.4, 37 °C).
For `CCC/C(=C\C1=C(F)C(=O)c2ccccc2C1=O)C(=O)N(CC)CC`, the thermodynamic solubility was 85 µg/mL (≈ 248 µM) (FaSSIF; 24 h, 37 °C).
`Cc1ccc(OCC(=O)N(Cc2cccs2)c2ccn[nH]2)cc1` has an oral bioavailability of 0.79% (beagle dog, male, plasma; oral gavage, 30 mg/kg).
For `C=C(c1ccc(C(=O)O)c(F)c1)c1cc2c(cc1C)C(C)(C)C=CC2(C)C`, the LDL level was 35 ± 2.6 mg/dL (Sprague-Dawley rat, male, plasma; oral, 100 mg/kg, 1 h, sesame oil vehicle).
For `NC[C@@H](C(=O)Nc1ccc(-c2cn[nH]c2)cc1)c1ccccc1`, “total eye irritation score” read 0 (OECD 405 eye irritation; New Zealand White rabbit, eye; topical, 0.1%, 32 h (day 2); direction not given).
